Measurements pooled from the literature.
Each line is one published result; not all experiments were run side by side. ± gives the spread as reported.

Compound | cell line | assay | system | conditions | how to read | endpoint | result
CCCc1cc2cc(-n3nc(C)c4c3CC(C)(C)CC4=O)cc(N[C@H]3CCOC3)c2c(=O)[nH]1 | hiPSC cardiomyocytes |  |  | 50 µM, 24 h |  | contraction amplitude | increased
CC/C(=C(\c1ccc(O)cc1)c1ccc(OCCN(C)CCOCCN(C)CCOc2ccc(/C(=C(/CC)c3ccccc3)c3ccc(O)cc3)cc2)cc1)c1ccccc1 | U2OS transfected with ERα |  |  | 10 µM, cytotoxicity |  | cell density | 81%
O=C(NCCN1CCCC1)c1ccc2cc(C(=O)c3cc(O)c(O)c(O)c3)oc2c1 | HEK293T | CellTiter-Glo |  | concentration not given, 24 and 72 h |  | cytotoxicity | not toxic
CC(=O)OC[C@H]1O[C@@H]([Se]Sc2ccccc2)[C@H](OC(C)=O)[C@@H](OC(C)=O)[C@@H]1OC(C)=O | J774 | cell growth or viability, WST-1 |  | 24 h |  | CC50 | 5.1 µM
O=c1c(-c2nc3ccccc3s2)cc2c(n1NS(=O)(=O)c1ccc(Cl)cc1)CCCCCC2 | Huh7.5, uninfected | trypan blue exclusion |  |  |  | CC50 | 310 µg/mL
CNCCNC(=O)CN1C(=O)Cc2c([nH]c3ccc(Br)cc23)-c2ccc(Cl)cc21 | J774 | cell growth or viability |  | 24 h |  | CC50 | 10.3 µM
CCCC[C@H](NC(=O)[C@H](CC(=O)O)NC(=O)[C@H](CC(=O)O)NC(=O)[C@H](CCC(=O)O)NC(=O)[C@H](Cc1ccc(O)cc1)NC(=O)[C@H](CC(=O)O)NC(=O)[C@H](CC(=O)O)NC(=O)[C@H](CCC(=O)O)NC(=O)[C@H](CC(C)C)NC(=O)[C@H](CCC(=O)O)NC(=O)[C@H](CCC(=O)O)NC(=O)c1ccc2c(c1)C1(OC2=O)c2ccc(O)cc2Oc2cc(O)ccc21)C(=O)N[C@@H](CCC(=O)O)C(=O)N[C@@H](CCC(=O)O)C(N)=O | A-431 cells | microinjection, single-cell CE |  |  |  | median degradation rate | 39 fmol/min/mg
O=C(CCC(CCC(=O)N[C@@H](Cc1ccc(O)cc1)C(=O)O)(CCC(=O)N[C@@H](Cc1ccc(O)cc1)C(=O)O)NC(=O)CCOCC(COCCC(=O)NC(CCC(=O)N[C@@H](Cc1ccc(O)cc1)C(=O)O)(CCC(=O)N[C@@H](Cc1ccc(O)cc1)C(=O)O)CCC(=O)N[C@@H](Cc1ccc(O)cc1)C(=O)O)(COCCC(=O)NC(CCC(=O)N[C@@H](Cc1ccc(O)cc1)C(=O)O)(CCC(=O)N[C@@H](Cc1ccc(O)cc1)C(=O)O)CCC(=O)N[C@@H](Cc1ccc(O)cc1)C(=O)O)COCCC(=O)NC(CCC(=O)N[C@@H](Cc1ccc(O)cc1)C(=O)O)(CCC(=O)N[C@@H](Cc1ccc(O)cc1)C(=O)O)CCC(=O)N[C@@H](Cc1ccc(O)cc1)C(=O)O)N[C@@H](Cc1ccc(O)cc1)C(=O)O | RD | cell growth or viability, MTS |  | 72 h |  | CC50 | > 30 µM
CC(=O)OC[C@H]1O[C@@H]([Se]C(C)=O)[C@H](OC(C)=O)[C@@H](OC(C)=O)[C@@H]1OC(C)=O | J774 | cell growth or viability, WST-1 |  | 24 h |  | CC50 | 22.8 µM
CCCCn1cc(C(=O)O)c(=O)c2cc(F)c(Nc3cccc(OC)c3)c([N+](=O)[O-])c21 | PC-3 | cell growth or viability, SRB |  |  |  | IC50 | 303 µM
N=C(N)NCCC[C@@H]1NC(=O)[C@H](CCCNC(=N)N)NC(=O)[C@H](CCCNC(=N)N)NC(=O)[C@H](Cc2c[nH]c3ccccc23)NC(=O)[C@H](Cc2c[nH]c3ccccc23)NC(=O)[C@H](Cc2c[nH]c3ccccc23)NC(=O)[C@H](Cc2c[nH]c3ccccc23)NC(=O)[C@H](CCCNC(=N)N)NC1=O | SK-OV-3 | MTS |  | 15 µM, 24 h |  | cytotoxicity | ≤ 5%
CC(=O)OC[C@H]1O[C@@H](Sc2sc(C(=O)c3ccc(Br)cc3)c(N)c2-c2nc3ccccc3s2)[C@H](OC(C)=O)[C@@H](OC(C)=O)[C@@H]1OC(C)=O | Huh7.5, uninfected |  |  | 72 h |  | non-toxic concentration | 100 µg/mL
Cc1cc(C)cc(C(=O)Nc2cccc(S(N)(=O)=O)c2)c1 | HEK293T | cell viability, MTT |  | 100 µM, 24 to 48 h |  | cytotoxicity | 14 ± 0.01%
COc1ccc(-c2ccc3oc(-c4ccc(OC)cc4)c(C#CC4(O)CCCCC4)c3c2)cc1 | primary human hepatocytes |  |  |  |  | CC50 | > 100 µM
CC(=O)Nc1ccc(C(=O)Nc2cc(-c3cccs3)ccc2N)cc1 | human bone marrow erythroid progenitors |  |  | 10 µM, 14 days | baseline: untreated | colony formation | 0%
CC/C(=C(\c1ccc(O)cc1)c1ccc(OCCN(C)CCOCCOCCOCCOCCN(C)CCOc2ccc(/C(=C(/CC)c3ccccc3)c3ccc(O)cc3)cc2)cc1)c1ccccc1 | U2OS transfected with ERα |  |  | 10 µM, cytotoxicity |  | cell density | 61%
COCc1cc2c(cn1)CN(C(=O)Nc1nc(-c3ccc(F)cc3)ccc1N)C2 | human bone marrow erythroid progenitors |  |  | 10 µM, 14 days | baseline: untreated | colony formation | 23%
CC(=O)OC[C@H]1O[C@@H]([Se]SC[C@H]2O[C@@H]3OC(C)(C)O[C@@H]3[C@H]3OC(C)(C)O[C@H]32)[C@H](OC(C)=O)[C@@H](OC(C)=O)[C@@H]1OC(C)=O | J774 | cell growth or viability, WST-1 |  | 24 h |  | CC50 | 13.5 µM
CCOc1c(C(C)(C)O)sc2cnc(Nc3ccc(N4CCC(N5CC6(COC6)C5)CC4)cc3OC)nc12 | human atrial cardiomyocytes | whole-cell patch clamp, measured: APD50 and APD80 |  | 1, 3 and 10 µM | baseline: vehicle | action potential duration | no effect

Compound | cell line | assay | system | conditions | how to read | endpoint | result
Cc1ccc(N2Cc3cc(NC(=O)N4CCN(c5cccc(C(F)(F)F)c5)CC4)ccc3C2=O)cc1 | primary mouse macrophages |  |  | concentration not given |  | cytotoxicity | not toxic
O=c1c(Br)c2oc3c(CN(Cc4ccccn4)Cc4cnccn4)c(O)ccc3nc-2c2ccccc12 | RAW 246.7 | colocalisation with ER-Tracker |  |  |  | Pearson's coefficient | 0.575
CN1/C(=C/C=C/c2cc(-c3ccccc3)cc(-c3ccccc3)[o+]2)C(C)(C)c2ccccc21 | J774 | cell growth or viability, MTT |  | 6 h |  | CC50 | 18.7 µM
CS[Se][C@@H]1O[C@H](COC(C)=O)[C@@H](OC(C)=O)[C@H](OC(C)=O)[C@H]1NC(C)=O | J774 | cell growth or viability, WST-1 |  | 24 h |  | CC50 | 2.8 µM
CC(=O)N[C@H](C(=O)N[C@H](C(=O)N[C@@H](CCCNC(=N)N)C(=O)N1Cc2ccccc2C[C@H]1C(=O)N[C@@H](Cc1ccccc1)C(N)=O)C1CCCCC1)C(C)C | human PBMC | Bio-Plex multiplex, measured: FGF |  | 250 µg/mL, 24 h |  | cytokine level | < 4.5 pg/mL
CC/C(=C(\c1ccc(O)cc1)c1ccc(OCCN(C)CCOCCOCCOCCOCCOCCOCCOCCOCCOCCOCCOCCN(C)CCOc2ccc(/C(=C(/CC)c3ccccc3)c3ccc(O)cc3)cc2)cc1)c1ccccc1 | U2OS transfected with ERα |  |  | 10 µM, cytotoxicity |  | cell density | 8%
CC1=C(/C=C/C(=O)N2CCN(C(N)=O)CC2)C(C)(C)CCC1 | T-REx-293 expressing human T17M opsin | cytotoxicity |  | 2 days |  | toxic concentration | ≥ 80 µM
CCCCn1cc(C(=O)O)c(=O)c2cc(F)c(Nc3cc(OC)c(OC)c(OC)c3)c([N+](=O)[O-])c21 | PC-3 | cell growth, sulforhodamine B |  | 72 h |  | IC50 | 24.3 ± 2.59 µg/mL
CC/C(=C(\c1ccc(O)cc1)c1ccc(OCCN(C)CCOCCOCCOCCOCCOCCOCCOCCOCCOCCN(C)CCOc2ccc(/C(=C(/CC)c3ccccc3)c3ccc(O)cc3)cc2)cc1)c1ccccc1 | U2OS transfected with ERα |  |  | 10 µM, cytotoxicity |  | cell density | 9%
COc1ccc2c(c1)c1c(C)c3cnccc3c(C)c1n2CCCN1CCN(C)CC1 | SK-N-SH | cell growth |  |  |  | IC50 | 1.2 ± 0.8 µM
CC(=O)N[C@@H]1[C@@H](OC(C)=O)[C@H](OC(C)=O)[C@@H](COC(C)=O)O[C@H]1[Se]Sc1ccccc1 | J774 | cell growth or viability, WST-1 |  | 24 h |  | CC50 | 28.7 µM
O=C(CCc1ccc(CNC(C(=O)OC2CCCC2)C2CCCCC2)cn1)NO (centres unmarked) | human CD14+ monocytes |  | human whole blood | 10 µM, 1 or 6 h |  | intracellular level | not detected
COc1cc(/C=C/C(C)=NO)ccc1OCC(=O)Nc1ccccc1Cl (stereo in doubt) | SH-SY5Y | MTT |  | concentration not given |  | cytotoxicity | toxic
C[C@H](NP(=O)(O)OC[C@H]1O[C@@](C#N)(c2ccc3c(N)ncnn23)[C@H](O)[C@@H]1O)C(=O)O | primary human hepatocytes | Seahorse OCR, measured: spare respiratory capacity |  | 3 days |  | CC50 | > 100 µM
C[C@H](CCC=O)[C@@H]1CC[C@]2(C)C3=C(CC[C@@]12C)[C@@]1(C)CC[C@H](O)C(C)(C)[C@@H]1CC3 | COS-7 | cell growth or viability, SRB |  | 50 µM |  | inhibition | 22%
[99Tc+].[C-]#[N+]CC(C)(C)OC.[C-]#[N+]CC(C)(C)OC.[C-]#[N+]CC(C)(C)OC.[C-]#[N+]CC(C)(C)OC.[C-]#[N+]CC(C)(C)OC.[C-]#[N+]CC(C)(C)OC | human sandwich-cultured hepatocytes |  |  | 20 min, culture day 7 | baseline: preloaded amount | canalicular efflux | 25.4 ± 6%
CC(C)CCC[C@@H](C)[C@H]1CCC([C@@H]2CC[C@H]3C[C@@H](O)CC[C@]3(C)[C@H]2O)[C@]1(C)CC(=O)O (some centres unmarked) | HEK293T | CellTiter-Blue |  | 10 µM |  | viability | > 100%
COc1ccc(-c2oc3ccc(-c4cc(OC)c(OC)c(OC)c4)cc3c2C#CC(C)(C)O)cc1 | primary human hepatocytes |  |  |  |  | CC50 | > 31.6 µM
N#Cc1cc(C(=O)OCC[18F])c(C(F)(F)F)nc1N1CCN(C(=O)Cc2ccccc2)CC1 | bEnd.3 monolayer transwell |  |  | concentration not given |  | permeability | 19.6%

A few entries again:
Compound | cell line | assay | system | conditions | how to read | endpoint | result
CC(=O)OC[C@H]1O[C@@H]([Se]SC[C@H]2O[C@@H]3OC(C)(C)O[C@@H]3[C@H]3OC(C)(C)O[C@H]32)[C@H](OC(C)=O)[C@@H](OC(C)=O)[C@@H]1OC(C)=O | J774 | cell growth or viability, WST-1 |  | 24 h |  | CC50 | 13.5 µM
CCOc1c(C(C)(C)O)sc2cnc(Nc3ccc(N4CCC(N5CC6(COC6)C5)CC4)cc3OC)nc12 | human atrial cardiomyocytes | whole-cell patch clamp, measured: APD50 and APD80 |  | 1, 3 and 10 µM | baseline: vehicle | action potential duration | no effect
Cc1ccc(N2Cc3cc(NC(=O)N4CCN(c5cccc(C(F)(F)F)c5)CC4)ccc3C2=O)cc1 | primary mouse macrophages |  |  | concentration not given |  | cytotoxicity | not toxic
O=c1c(Br)c2oc3c(CN(Cc4ccccn4)Cc4cnccn4)c(O)ccc3nc-2c2ccccc12 | RAW 246.7 | colocalisation with ER-Tracker |  |  |  | Pearson's coefficient | 0.575
CN1/C(=C/C=C/c2cc(-c3ccccc3)cc(-c3ccccc3)[o+]2)C(C)(C)c2ccccc21 | J774 | cell growth or viability, MTT |  | 6 h |  | CC50 | 18.7 µM
